Assay results pooled from the literature.
A part holds a random share of what one study measured.

Block 1 — target: Sox, HMG box (Pigoraptor chileana); technique: Spec-seq; form: double-stranded DNA, one strand shown; medium: in vitro; concentration: not given; notes: whole probe, mean of replicates; relative to: not given; reading: lower = stronger binding; measurement: relative binding energy; shared flanks, not repeated: GAGTCGTCTCGTCAGCAC … CCGTAGAGCACTCAGGTC
Residues (chain): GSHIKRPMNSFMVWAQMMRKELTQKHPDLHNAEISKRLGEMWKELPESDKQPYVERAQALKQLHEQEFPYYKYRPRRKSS
AGTAGTT: -0.983 ln ratio
CGAGGTT: 1.29 ln ratio
ACAGGTT: -0.0314 ln ratio
CAAGGTT: 1.06 ln ratio
CATCTGA: 0.763 ln ratio
GGTGGTT: 1.12 ln ratio
CATTCAA: -0.747 ln ratio
TTAGGTT: 0.573 ln ratio
TAAAGTT: 0.292 ln ratio
CATTTCT: 0.513 ln ratio
CAAAGTT: 0.47 ln ratio
GCACGTT: 1.26 ln ratio
ATGCGTT: 0.397 ln ratio
CATATCT: 0.435 ln ratio
GAATGTT: 0.369 ln ratio

Block 2 — technique: RNA Bind-n-Seq; form: RNA; medium: in vitro; concentration: 365 nM; relative to: no-protein control; reading: higher = stronger binding; measurement: RBNS enrichment (R)
Target: RNA binding protein fox-1 homolog 2, RRM domain, GST-SBP tag (RBFOX2, Homo sapiens, UniProt O43251-10, residues 100-194)
Notes: natural RNA segment, single round, ends assumed
Shared flanks, not repeated: GGGAGUUCUACAGUCCGACGAUC … UGGAAUUCUCGGGUGCCAA
Construct (chain): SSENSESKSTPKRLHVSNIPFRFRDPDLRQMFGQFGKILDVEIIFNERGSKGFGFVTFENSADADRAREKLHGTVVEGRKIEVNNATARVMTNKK
GUGUGAGUGUGUGUGGGCGUGAGCGGGUGUGUACGUACCAAUAAACAUCCUGGUUUUAAGACAAUGUCAAAUGGUGUCAGUUUCUUCCUUCCUUCCUUCCUUCCUUCCUU: 1.17
CAGUCCUUUCUUACAACAACUUGGAGCCAUAGUAACCUCCGAAAUGAGGUCUCAGCAAGCCACUUUACCACAACGAGCAACCCACCCAUAGGCACGUACCAGCCGCCACU: 0.375
AGCAGCAGGAACAAAGCAGGCUUACUGCUGUCAACACUGCUUAAAAUGCUUUCAUGUCCUAGGUAAAGAAAAAACAUAAUUGCUUGUGAAGCAGUUUCAUGAUAAAUAGU: 0.33
GUUUUUCUCAGCGCAGUUUUGUUCUGUGUGUCCAUUGGAUUACAAACUUUAUUAAAAAAUACAAAACCCUCAGGUGUGAAGGUGGUUGUCACUCAGUGGGCGCCUCGGUU: 0.367
CCGUCCCUCAGUGAUACGUACAGCCAAAAAGGACCAACUGGCUUCUGUGCACUAGCCUGUGAUUAACUUGCUUAGUAUGGUUCUCAGAUCUUGACAGUAUAUUUGAAACU: 0.369
UCUUUUGAUCAUAUCAAGCUAGGAUAGAAGGGGGGCUAUUUUAAAUGUCAAGGUCAGCAGUGUUACUUUGAAUGUAAACUGGUAUAAUAGGUAGUUUUCUAUAGUAACUU: 0.556
UGGGAUUUUCGAAGCAGACAACACUAUUUCAUCGUGUUUCAAAUUGGAACCUUGAGGCUAGUUAGUAUCACACUCAGGCCACACUCAGCACUUGCCCACUCUUGUUUACU: 0.269
UUGGGAAUAGAAUUUAAAAUUGGAUUAAGAUUUUAUUUCCAGUUUUUUUUAUUUAUUUAUUUUUUUUUUUGAGACGGAGUCUUGCUCUGUCGCCCAGGCUGAAGUGCGGU: 1.05
UUAUCAAGUAUCCUGUAUGUGUUCCUUUGUAAACCGGUACUCAUGAAUGAGGGAAAGUCUGAUGCUAAGAUACUGCCUGCACUGGAAUGUCAAACACUAUAUAACAAGCU: 5.19
UAAGUUAGAAUUUUACCUCAUAAAAUUUUUUGAGGUUUGAUGUAUGUCUCUGUCUUAUCAAUAAUGAGGCUUAAAAAAUACUGGAUUUGAAUGGCUGCCGUUUUUUCAAA: 0.363
UACUGAUACAGUUAUUCUUUUUUUUAAAGAACAUUGUUUUAUAAAGAACGUGAUUUCCAGUGAUCUCUGGAAGCGCUAAAGCUAAAAUUUCUGUUCUUGAAACACUUCAG: 0.439
CUGGGGGACUGGGGGGCCAUUUCCUUUUCUCUGCCCUUUUUUUGUUGUUCUAUUUUGUACAGACAAGUUGGAAAAACAACAGCGACAAAAAAGUCAAGAAACUUUGUAAA: 0.51

Block 3 — technique: RNA Bind-n-Seq; form: RNA; medium: in vitro; concentration: 200 nM; notes: whole 134-nt RNA, ends assumed; added: 150 mM KCl; relative to: input library; reading: higher = stronger binding; measurement: log2 enrichment
Target: Ras GTPase-activating protein-binding protein 1, full length (G3BP1, Homo sapiens, UniProt Q13283)
UniProt Q13283, sequence (whole entry, looked up): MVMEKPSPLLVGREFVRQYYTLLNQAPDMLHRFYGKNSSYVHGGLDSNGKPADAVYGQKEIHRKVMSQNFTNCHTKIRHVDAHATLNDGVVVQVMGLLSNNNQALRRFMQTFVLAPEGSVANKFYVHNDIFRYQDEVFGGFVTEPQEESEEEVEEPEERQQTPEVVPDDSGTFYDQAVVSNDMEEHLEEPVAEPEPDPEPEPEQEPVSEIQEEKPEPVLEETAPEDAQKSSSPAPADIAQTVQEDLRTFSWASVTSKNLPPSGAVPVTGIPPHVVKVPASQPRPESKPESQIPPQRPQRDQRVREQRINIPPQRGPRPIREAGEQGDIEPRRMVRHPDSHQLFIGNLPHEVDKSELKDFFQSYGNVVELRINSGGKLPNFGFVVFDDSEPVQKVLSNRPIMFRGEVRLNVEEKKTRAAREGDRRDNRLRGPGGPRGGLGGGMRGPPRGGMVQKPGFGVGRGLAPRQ
Shared flanks, not repeated: GGGAGUUCUACAGUCCGACGAUC … UGGAAUUCUCGGGUGUCAAGG
AAGUCCUGUGCUACACAUCGUAUGUACCGAAUCGGAAAAGGGAAAAGGGGAAAAGGAAAGUAUUAUGUUACGCCGUUCGGAUCUGCACUU: -0.735
CUCAAGUCCUGUGCUACACAUCGUAUGUACCGAAUCGGGAGGGUGGGUUUGGGAAAGUAUUAUGUUACGCCGUUCGGAUCUGCACUUCCA: 0.928
GCAGGAAGUAAAAACAAAUGGAAAUGCUUCGGAUAGUGGCAGGGGUGGGGGUUGCUAAGGAAAGGGUGGGAAAGGAGUGGGUAAAGAGUU: 0.856
AGUCCUGUGCUACACAUCGUAUGUACCGAAUCGGGAGGGAAAAAGGGUUUUUUUGGGAAAGUAUUAUGUUACGCCGUUCGGAUCUGCACU: -0.0293
CUCAAGUCCUGUGCUACACAUCGUAUGUACCGAAUCGGGGAGGGGAGGAGGGGAAAGUAUUAUGUUACGCCGUUCGGAUCUGCACUUCCA: 1.23
UUCUUGCCAGAGACGAAGAAGCGCAAGAAACGCAAGUCAGAGGAUGGCACGCCAGCGGAGGAUGGCACACCUGCAGCCACCGGCGGGAGC: -1.18
CUCAAGUCCUGUGCUACACAUCGUAUGUACCGAAUCGGAAAGGUGGAAAAAGGAAAGUAUUAUGUUACGCCGUUCGGAUCUGCACUUCCA: -0.594
ACCAUGCAGGUGGGCAUCUUUGGGAAGUGGGGCAAGGGGGGGAUAGGGAGGGGGGUAACACUUUGGGAACAGGUGGUCCCAGGUCUUUUC: 1.19
CUGUGCUACACAUCGUAUGUACCGAAUCGGGCCCCCCCGGGGCCCCCCCGGCCCCCCCGGGGAAAGUAUUAUGUUACGCCGUUCGGAUCU: -1.48
AAGUCCUGUGCUACACAUCGUAUGUACCGAAUCGGGCCCCGGCCCCGGGCCCCGGGAAAGUAUUAUGUUACGCCGUUCGGAUCUGCACUU: -1.14
UCAAGUCCUGUGCUACACAUCGUAUGUACCGAAUCGGGAGGGUUUUUGGGUGGGAAAGUAUUAUGUUACGCCGUUCGGAUCUGCACUUCC: 0.43
CACAGAUAACACGCACCCACACAGACACAGAGGGAAGGGGUUGGGAUGGGGACAGGGUGCACAGCAGGGCGGGGUAGGACCCCAGCCCCU: 1.77
UCAAGUCCUGUGCUACACAUCGUAUGUACCGAAUCGGGGUGGGGAGGGGUGGGGAAAGUAUUAUGUUACGCCGUUCGGAUCUGCACUUCC: 1.32
GUCCUGUGCUACACAUCGUAUGUACCGAAUCAAAUUUUUUUAAAUUUAAAUUUUUAAAAAAGUAUUAUGUUACGCCGUUCGGAUCUGCAC: -1.45

Block 4 — technique: protein-binding microarray; form: double-stranded DNA, one strand shown; medium: in vitro; concentration: 940 nM top; notes: 60-bp whole probe; added: salmon DNA 0.4 mg/ml; relative to: random background probes; reading: higher = stronger binding; measurement: fitted relative affinity; shared flanks, not repeated: GCCTAGCAC … GTCTTGATTCGCTTGACGCTGCTG
Target: Interferon regulatory factor 5, full length, phosphomimetic (IRF5, Homo sapiens, UniProt Q13568-2, residues 1-514, S451D/S453D/S456D/S462D)
GACGAACTGAGACTGTAGACGTGCTAG: -0.0942 z-score
TGCTCTTTCTACATAGATGTGTGCTAG: 1.02 z-score
GAACCTTGGGCTCTAGGTTCGTGCTAG: 0.0796 z-score
GGTCATGTCTGTGTCACAGAGTGCTAG: -0.506 z-score
TCAGATTTCAATTAAAAACTGTGCTAG: 0.173 z-score
TCACCTTAGGTTTTCTGACTGTGCTAG: -0.21 z-score
GACGATCTCAGTTTCCAGACGTGCTAG: 0.683 z-score
TTAGAACTGAGTCTCGATTCGTGCTAG: 2.08 z-score
TTAGATTGCAGTCTCGATTAGTGCTAG: 2.19 z-score
TTAGAATTCAGTATCGATTAGTGCTAG: 6.38 z-score
TTAGGTCTCCTAATCCTTTAGTGCTAG: 0.228 z-score
TCAAGTTCAGTTCTCTAACTGTGCTAG: -0.438 z-score
AAGCCATTGGTCTTCACTTGGTGCTAG: -0.21 z-score
CCTTGTACGTCGTTTCCCAAGGTGCTA: 0.0373 z-score
TTTTATTTATAAATTATCTTGTGCTAG: 0.366 z-score
GACGATATCAGTAGCGAGACGTGCTAG: -0.354 z-score
TTCTACTTCTGTTTTTGCTTGTGCTAG: 1.16 z-score
TTAGAACTGGGGTTTAGATTAGTGCTA: 0.176 z-score
GGCGGTATCGGTATCGGGACGTGCTAG: 9.22 z-score
TTGTTTTACAATTTGCTTTAGTGCTAG: 0.312 z-score
TCATTTTCATATATATAACTGTGCTAG: 1.4 z-score

Some of these lines once more (block 4):
GAACCTTGGGCTCTAGGTTCGTGCTAG: 0.0796 z-score
TCACCTTAGGTTTTCTGACTGTGCTAG: -0.21 z-score
TCAAGTTCAGTTCTCTAACTGTGCTAG: -0.438 z-score
GACGATCTCAGTTTCCAGACGTGCTAG: 0.683 z-score
TGCTCTTTCTACATAGATGTGTGCTAG: 1.02 z-score
GACGAACTGAGACTGTAGACGTGCTAG: -0.0942 z-score
